Published values from different studies.
Each line is one published result; not all experiments were run side by side. ± marks the error that the study gave.
DMPK: Myotonin-protein kinase (DMPK, Homo sapiens, UniProt Q09013)
UniProt Q09013, sequence (whole entry, looked up): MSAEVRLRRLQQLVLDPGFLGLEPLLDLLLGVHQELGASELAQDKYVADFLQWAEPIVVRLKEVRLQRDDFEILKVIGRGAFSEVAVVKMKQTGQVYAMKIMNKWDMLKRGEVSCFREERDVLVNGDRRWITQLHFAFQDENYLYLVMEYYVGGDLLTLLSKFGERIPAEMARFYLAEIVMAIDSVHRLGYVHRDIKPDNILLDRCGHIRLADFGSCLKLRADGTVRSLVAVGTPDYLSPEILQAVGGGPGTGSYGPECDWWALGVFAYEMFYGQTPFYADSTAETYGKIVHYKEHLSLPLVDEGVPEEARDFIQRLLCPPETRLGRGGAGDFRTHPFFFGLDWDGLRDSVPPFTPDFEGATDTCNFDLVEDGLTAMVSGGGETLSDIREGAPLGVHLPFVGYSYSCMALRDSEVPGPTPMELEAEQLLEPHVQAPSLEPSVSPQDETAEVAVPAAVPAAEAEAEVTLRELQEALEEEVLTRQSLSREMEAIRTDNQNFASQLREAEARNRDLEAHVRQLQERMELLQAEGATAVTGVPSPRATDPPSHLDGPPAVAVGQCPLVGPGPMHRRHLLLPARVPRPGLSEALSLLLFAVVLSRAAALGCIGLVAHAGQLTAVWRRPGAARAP
F2: Prothrombin (F2, Homo sapiens, UniProt P00734)
prp N63Q: Ribosomal processing cysteine protease Prp (prp, Staphylococcus aureus, UniProt Q2FXS9, N63Q)
UniProt P08913, sequence (whole entry, looked up): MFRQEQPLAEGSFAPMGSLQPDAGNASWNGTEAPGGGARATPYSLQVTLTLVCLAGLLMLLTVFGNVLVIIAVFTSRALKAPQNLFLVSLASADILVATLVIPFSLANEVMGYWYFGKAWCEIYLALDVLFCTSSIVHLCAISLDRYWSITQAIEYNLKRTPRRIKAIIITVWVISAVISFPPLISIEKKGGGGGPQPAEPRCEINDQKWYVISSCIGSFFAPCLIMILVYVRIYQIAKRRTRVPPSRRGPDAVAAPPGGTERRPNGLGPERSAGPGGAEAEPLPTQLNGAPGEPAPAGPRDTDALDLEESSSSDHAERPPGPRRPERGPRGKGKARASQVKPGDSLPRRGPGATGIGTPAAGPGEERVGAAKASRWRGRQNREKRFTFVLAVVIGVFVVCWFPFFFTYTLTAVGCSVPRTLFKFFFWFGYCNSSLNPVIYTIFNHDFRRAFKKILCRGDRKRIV
UniProt P05067, sequence (whole entry, looked up): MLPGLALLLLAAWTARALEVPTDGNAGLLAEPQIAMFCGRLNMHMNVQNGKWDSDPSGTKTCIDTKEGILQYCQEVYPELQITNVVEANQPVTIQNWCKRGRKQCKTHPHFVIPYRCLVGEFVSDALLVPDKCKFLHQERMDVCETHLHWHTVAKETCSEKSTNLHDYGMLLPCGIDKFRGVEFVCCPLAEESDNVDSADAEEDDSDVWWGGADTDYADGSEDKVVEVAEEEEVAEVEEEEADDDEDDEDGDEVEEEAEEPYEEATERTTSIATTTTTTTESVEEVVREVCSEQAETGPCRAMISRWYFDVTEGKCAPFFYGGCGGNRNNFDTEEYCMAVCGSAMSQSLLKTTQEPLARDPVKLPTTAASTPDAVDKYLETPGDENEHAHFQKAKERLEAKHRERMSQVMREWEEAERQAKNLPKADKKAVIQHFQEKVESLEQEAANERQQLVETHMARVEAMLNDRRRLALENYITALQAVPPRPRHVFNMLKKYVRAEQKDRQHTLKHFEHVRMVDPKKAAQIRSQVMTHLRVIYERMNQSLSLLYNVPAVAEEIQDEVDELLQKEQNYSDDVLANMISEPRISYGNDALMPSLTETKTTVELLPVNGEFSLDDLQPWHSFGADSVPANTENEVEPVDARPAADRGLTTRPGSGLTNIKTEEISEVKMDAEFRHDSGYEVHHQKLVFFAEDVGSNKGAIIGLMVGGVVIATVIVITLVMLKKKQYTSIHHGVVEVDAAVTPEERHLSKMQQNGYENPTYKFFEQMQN
UniProt P41240, sequence (whole entry, looked up): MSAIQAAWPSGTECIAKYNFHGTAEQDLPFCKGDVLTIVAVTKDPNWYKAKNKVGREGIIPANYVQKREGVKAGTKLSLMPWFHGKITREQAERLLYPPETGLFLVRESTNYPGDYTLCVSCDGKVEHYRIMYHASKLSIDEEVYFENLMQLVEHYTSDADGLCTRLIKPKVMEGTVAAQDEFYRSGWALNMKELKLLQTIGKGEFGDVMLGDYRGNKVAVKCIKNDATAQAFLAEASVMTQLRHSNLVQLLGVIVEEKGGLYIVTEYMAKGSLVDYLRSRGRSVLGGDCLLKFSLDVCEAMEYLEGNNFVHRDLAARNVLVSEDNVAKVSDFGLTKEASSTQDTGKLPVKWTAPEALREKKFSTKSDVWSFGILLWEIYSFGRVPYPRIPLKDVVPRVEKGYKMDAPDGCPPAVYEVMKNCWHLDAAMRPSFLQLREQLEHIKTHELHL
UniProt Q15349, sequence (whole entry, looked up): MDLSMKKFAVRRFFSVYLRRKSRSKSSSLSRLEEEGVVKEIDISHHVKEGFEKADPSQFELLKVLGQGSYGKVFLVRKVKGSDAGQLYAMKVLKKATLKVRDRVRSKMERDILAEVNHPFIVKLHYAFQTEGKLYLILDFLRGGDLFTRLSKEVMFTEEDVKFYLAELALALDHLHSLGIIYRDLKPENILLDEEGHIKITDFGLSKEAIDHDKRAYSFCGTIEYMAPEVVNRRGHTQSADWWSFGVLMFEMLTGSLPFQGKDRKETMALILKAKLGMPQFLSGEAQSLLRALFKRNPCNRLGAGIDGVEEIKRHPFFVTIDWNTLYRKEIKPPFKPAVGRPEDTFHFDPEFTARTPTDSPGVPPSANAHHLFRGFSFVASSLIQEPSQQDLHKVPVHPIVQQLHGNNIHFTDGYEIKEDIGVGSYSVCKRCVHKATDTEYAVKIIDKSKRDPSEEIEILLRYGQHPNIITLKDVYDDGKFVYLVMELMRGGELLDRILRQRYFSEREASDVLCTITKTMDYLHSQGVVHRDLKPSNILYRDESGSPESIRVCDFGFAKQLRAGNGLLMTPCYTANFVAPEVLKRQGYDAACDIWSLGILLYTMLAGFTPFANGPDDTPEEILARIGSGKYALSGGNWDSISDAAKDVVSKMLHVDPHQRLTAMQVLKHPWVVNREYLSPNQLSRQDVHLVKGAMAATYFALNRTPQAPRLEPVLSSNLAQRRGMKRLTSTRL
UniProt P97612, sequence (whole entry, looked up): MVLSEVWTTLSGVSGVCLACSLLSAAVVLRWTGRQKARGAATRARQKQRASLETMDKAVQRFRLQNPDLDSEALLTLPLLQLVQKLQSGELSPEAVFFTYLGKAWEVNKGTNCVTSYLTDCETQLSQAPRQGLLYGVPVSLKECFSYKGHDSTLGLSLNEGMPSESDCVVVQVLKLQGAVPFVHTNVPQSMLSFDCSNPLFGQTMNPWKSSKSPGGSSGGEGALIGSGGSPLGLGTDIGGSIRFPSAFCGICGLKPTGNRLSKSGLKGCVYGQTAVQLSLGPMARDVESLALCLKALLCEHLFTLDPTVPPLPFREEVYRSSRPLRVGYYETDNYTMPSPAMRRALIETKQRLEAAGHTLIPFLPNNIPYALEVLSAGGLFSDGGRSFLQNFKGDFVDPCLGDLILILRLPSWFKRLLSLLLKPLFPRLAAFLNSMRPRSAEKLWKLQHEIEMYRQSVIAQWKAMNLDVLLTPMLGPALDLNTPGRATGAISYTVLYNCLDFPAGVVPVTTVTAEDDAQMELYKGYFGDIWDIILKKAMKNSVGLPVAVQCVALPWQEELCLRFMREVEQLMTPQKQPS
UniProt P00811, sequence (whole entry, looked up): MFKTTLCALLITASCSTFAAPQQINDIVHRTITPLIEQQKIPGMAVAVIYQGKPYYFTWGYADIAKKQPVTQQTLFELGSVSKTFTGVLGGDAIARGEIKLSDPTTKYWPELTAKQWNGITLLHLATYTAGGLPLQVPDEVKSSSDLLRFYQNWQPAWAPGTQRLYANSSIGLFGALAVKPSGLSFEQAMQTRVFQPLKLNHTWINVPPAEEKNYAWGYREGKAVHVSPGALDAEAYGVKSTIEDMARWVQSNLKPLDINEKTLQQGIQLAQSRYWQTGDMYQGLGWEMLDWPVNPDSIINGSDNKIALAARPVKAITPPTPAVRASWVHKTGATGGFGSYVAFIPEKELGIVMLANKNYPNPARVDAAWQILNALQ

| Compound | target | assay | test system | conditions | inhibition |
| --- | --- | --- | --- | --- | --- |
| CCc1ccc(-c2ccc3c(C(=O)c4cc(OC)c(OC)c(OC)c4)c[nH]c3c2)cc1 | Tubulin alpha-1B chain/TUBB2B (Bos taurus, UniProt P81947+Q6B856) | tubulin polymerization, turbidimetry |  | concentration not given | inactive |
| CN(C(=O)n1cnc(-c2ccc[n+]([O-])c2)c1)C1CCCCC1 | DMPK | kinase activity, inhibitor |  | 10 µM, together with: Axltide substrate | 5% |
| Cn1cccc1-c1cccnc1 | ADRA1D (Homo sapiens, UniProt P25100) | binding |  | 50 µM | -6.92% |
| Clc1cccc(-c2c[nH]c3ncnc(N4CCOCC4)c23)c1 | STK4 (Homo sapiens, UniProt Q13043) | kinase activity, inhibitor, PhosphoSens kinetic |  | concentration not given, 2 h, together with: ATP at Km | inhibited |
| COCc1c(-c2cc3cc(C)cc(OC)c3s2)c2c(N)ncnn2c1CN1CCNC(=O)C1 | phosphodiesterase 4 | enzyme activity |  | 10 µM | -3% |
| CC(=O)NC[C@H]1[C@H](O)[C@H](O)[C@@H]2[C@H](O)C[C@@H](CO)N21 | human placental β-N-acetylglucosaminidase |  |  | 0.000805 µM, run 1, together with: p-nitrophenyl GlcNAc | 12% |
| C[C@H]1N=C(c2ccccc2F)c2cc(Br)ccc2-n2cnc(C(=O)O)c21 | HTR7 (Homo sapiens, UniProt P34969) | binding |  | 10 µM | 3.3 ± 4.8% |
| O=C(Nc1cccnn1)N1CCC(=Cc2cccc(Oc3ccc(C(F)(F)F)cn3)c2)CC1 | Faah (Rattus norvegicus, UniProt P97612) | probe labelling, inhibitor, competitive ABPP with azido-FP probe | rat brain soluble fraction | 0.1 µM | 99.7% |
| COc1cc(Nc2ncc(F)c(Nc3ccc4c(n3)NC(=O)C(C)(C)O4)n2)cc(OC)c1OC | CSK (Homo sapiens, UniProt P41240) | KINOMEscan |  | 10 µM | 95% |
| O=C(Nc1ccc2c(c1)B(O)OC2)c1ccc(N2CCOCC2)cc1 | F2 | enzyme activity |  | 50 µM, together with: substrate 50 µM | ≤ 10% |
| CC[C@H](C)[C@H](NC(=O)[C@@H](NC(=O)[C@H](N)Cc1ccccc1)C(C)C)C(=O)N[C@@H](C)C(N)=O | APP (Homo sapiens, UniProt P05067) | amyloid-beta aggregation, thioflavin T fluorescence |  | 1.0 µM, 96 h, together with: 2 µM amyloid-beta | 76% |
| O=C(Nc1ccc2c(c1)B(O)OC2)c1ccc(OCc2ccccc2)cc1 | F2 | enzyme activity |  | 50 µM, together with: substrate 50 µM | ≤ 10% |
| CNCCCC12CCC(c3ccccc31)c1ccccc12 | Potassium/sodium hyperpolarization-activated cyclic nucleotide-gated channel 1 (Homo sapiens, UniProt O60741) | ion current |  | 30 µM | 29.7% |
| N#Cc1ccc(COc2cccc(C(=O)Nc3ccc4c(c3)B(O)OC4)c2)cc1 | F2 | enzyme activity |  | 50 µM, together with: substrate 50 µM | ≤ 10% |
| Cn1c(=O)cc(N2CCC[C@@H](N)C2)n(Cc2ccccc2C#N)c1=O | prp N63Q | enzyme activity, inhibitor |  | 10 µM, prp 21.4 nM, together with: FITC peptide substrate 0.5 µM | 38.4 ± 25.5% |
| O=C(Nc1cnccc1Cl)N1CCN(Cc2ccc3c(c2)OC(F)(F)O3)CC1 | DMPK | kinase activity, inhibitor |  | 10 µM, together with: Axltide substrate | 1% |
| COC(=O)N[C@H](C(=O)N1CCC[C@H]1C(=O)Nc1ccc([C@@H]2CC[C@@H](c3ccc(NC(=O)[C@@H]4CCCN4C(=O)[C@@H](NC(=O)OC)C(C)C)cc3)N2c2ccc(C(C)(C)C)cc2)cc1)C(C)C | prp N63Q | enzyme activity, inhibitor |  | 10 µM, prp 21.4 nM, together with: FITC peptide substrate 0.5 µM | 17.9 ± 8% |
| C#CCCCCNC(=O)CI | Genome polyprotein, NIa protease (Tobacco etch virus, UniProt P04517) |  |  | up to 50 µM | no inhibition |

| Compound | target | assay | test system | conditions | inhibition |
| --- | --- | --- | --- | --- | --- |
| CN(CCN1CCC(OC(=O)Nc2ccccc2-c2ccccc2)CC1)C(=O)c1ccc(CN2CCC(C(N)=O)CC2)cc1 | rat GABA transporter | radioligand binding |  | 1 µM, together with: [3H]GABA 10 nM | 3% |
| CC(C)C[C@H](NC(=O)CNC(=O)c1cc(Cl)ccc1Cl)B(O)O | prp N63Q | enzyme activity, inhibitor |  | 10 µM, prp 21.4 nM, together with: FITC peptide substrate 0.5 µM | -6.57 ± 6% |
| CN1CCN(c2cc(-c3ccncc3)c(-c3ccc4ccccc4c3)nn2)CC1 | NPY4R (Homo sapiens, UniProt P50391) | antagonist, FLIPR |  | 10 µM | 18.8% |
| CC(C(O)c1ccc(O)cc1)N1CCC(Cc2ccccc2)CC1 (centres unmarked) | Glutamate receptor ionotropic, NMDA 2A, with GluN1 (Grin2a, Rattus norvegicus, UniProt Q00959) |  | HEK293 | 120 µM | ~56% |
| N[C@@H](CC(=O)N1CCn2c(nnc2C(F)(F)F)C1)Cc1cc(F)c(F)cc1F | prp N63Q | enzyme activity, inhibitor |  | 10 µM, prp 21.4 nM, together with: FITC peptide substrate 0.5 µM | 6.7 ± 35.1% |
| Cc1cccc(COc2cccc(C(=O)Nc3ccc4c(c3)B(O)OC4)c2)c1 | F2 | enzyme activity |  | 50 µM, together with: substrate 50 µM | ≤ 10% |
| COc1ccc(Cl)cc1NC(=O)COC(=O)C(CC(C)C)N1C(=O)C2CC=CCC2C1=O (centres unmarked) | Beta-lactamase (ampC, Escherichia coli K-12, UniProt P00811) | enzyme activity, inhibitor |  | 10 µM, together with: CENTA substrate | 5% |
| C=CCc1ccc(O)c(-c2cc(CC=C)ccc2O)c1 | CES1 (Homo sapiens, UniProt P23141) | intracellular hydrolysis, inhibitor, bioluminescence imaging | renal cells | 20 µM | inhibited |
| Cc1cnc(C(=O)N[C@H]2CCCCC/C=C\[C@@H]3C[C@@]3(C(=O)NS(=O)(=O)C3CC3)NC(=O)[C@@H]3C[C@@H](Oc4nc5ccccc5c5ccccc45)CN3C2=O)cn1 | prp N63Q | enzyme activity, inhibitor |  | 10 µM, prp 21.4 nM, together with: FITC peptide substrate 0.5 µM | 35.8 ± 3.9% |
| COc1ccc(N2C(=O)N(c3c(C)cccc3Cl)Cc3cnc(Nc4ccc(C5CCN(C)CC5)cc4OC)nc32)nc1 | PRKCG (Homo sapiens, UniProt P05129) | kinase activity, inhibitor |  | 0.5 µM, kinase PKC-GAMMA | -0.33% |
| N#C[C@@H]1C[C@@H]2C[C@@H]2N1C(=O)[C@@H](N)C12CC3CC(CC(O)(C3)C1)C2 | prp N63Q | enzyme activity, inhibitor |  | 10 µM, prp 21.4 nM, together with: FITC peptide substrate 0.5 µM | 38.2 ± 7.3% |
| N#Cc1ccc(CNc2ccc3c(c2)B(O)OC3)cc1 | F2 | enzyme activity |  | 50 µM, together with: substrate 50 µM | ≤ 10% |
| COC([CH2][Hg+])CNC(=O)c1ccccc1OCC(=O)O.[OH-] (centres unmarked) | prp N63Q | enzyme activity |  | 10 µM, 21.4 nM enzyme dimer, together with: 0.5 µM FITC-labelled peptide substrate | 104.5 ± 0.5% |
| CC(C)N1CCC[C@H]1CNC(=O)c1cn(C2CCCC2)c(=O)c2c1c1ccccc1n2C | kainate receptor, rat | radioligand binding |  | 10 µM | -6% |
| Cn1cc(-c2cc(F)cc(N3CCn4c(cc5c4CCCC5)C3=O)c2CO)cc(Nc2ccc(N3CCN(C4COC4)CC3)cn2)c1=O | RPS6KA2 (Homo sapiens, UniProt Q15349) | kinase activity, inhibitor, SelectScreen kinase profiling |  | 0.1 µM, together with: ATP at apparent Km | 12% |
| O=C1C(=O)N(Cc2ccc(Cl)c(Cl)c2)c2ccccc21 | prp N63Q | enzyme activity |  | 10 µM, 21.4 nM enzyme dimer, together with: 0.5 µM FITC-labelled peptide substrate | 37.7 ± 7.7% |
| O=c1ccc2ccccc2o1 | ADRA2A (Homo sapiens, UniProt P08913) | antagonist radioligand binding |  | 10 µM, SafetyScreen44 | 1.88% |

Repeated from above:
| Compound | target | assay | test system | conditions | inhibition |
| --- | --- | --- | --- | --- | --- |
| CN(C(=O)n1cnc(-c2ccc[n+]([O-])c2)c1)C1CCCCC1 | DMPK | kinase activity, inhibitor |  | 10 µM, together with: Axltide substrate | 5% |
| Cn1cccc1-c1cccnc1 | ADRA1D (Homo sapiens, UniProt P25100) | binding |  | 50 µM | -6.92% |
| Clc1cccc(-c2c[nH]c3ncnc(N4CCOCC4)c23)c1 | STK4 (Homo sapiens, UniProt Q13043) | kinase activity, inhibitor, PhosphoSens kinetic |  | concentration not given, 2 h, together with: ATP at Km | inhibited |
